Assay results pooled from the literature.
Lines come from different studies, so protocols differ. ± gives the spread as reported.
SLC6A3: Sodium-dependent dopamine transporter (SLC6A3, Homo sapiens, UniProt Q01959)
Sequence of UniProt Q01959 (whole entry, unmodified, looked up): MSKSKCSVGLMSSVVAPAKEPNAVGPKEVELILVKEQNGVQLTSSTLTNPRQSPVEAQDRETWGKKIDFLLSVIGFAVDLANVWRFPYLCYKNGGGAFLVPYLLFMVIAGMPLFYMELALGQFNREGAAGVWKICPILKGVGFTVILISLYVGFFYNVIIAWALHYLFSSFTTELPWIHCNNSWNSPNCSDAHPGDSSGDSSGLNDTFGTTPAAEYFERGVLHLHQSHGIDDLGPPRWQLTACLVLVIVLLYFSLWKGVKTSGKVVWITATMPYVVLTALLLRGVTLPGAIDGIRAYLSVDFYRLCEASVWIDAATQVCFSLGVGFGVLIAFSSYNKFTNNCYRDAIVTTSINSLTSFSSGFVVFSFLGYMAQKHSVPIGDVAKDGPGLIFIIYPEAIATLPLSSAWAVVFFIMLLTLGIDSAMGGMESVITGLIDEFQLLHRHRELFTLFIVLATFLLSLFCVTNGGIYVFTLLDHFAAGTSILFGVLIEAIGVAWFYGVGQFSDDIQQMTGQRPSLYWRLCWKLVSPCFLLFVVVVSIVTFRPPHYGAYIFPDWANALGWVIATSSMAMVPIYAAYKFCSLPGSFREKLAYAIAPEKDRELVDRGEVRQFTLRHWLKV

| SMILES | target | test | system | setting | endpoint | result |
| --- | --- | --- | --- | --- | --- | --- |
| CCCC(C(=O)c1ccc2c(c1)OCO2)N1CCCC1 (stereo not drawn) | SLC6A3 | leak current inhibition, two-electrode voltage clamp | Xenopus oocytes | holding potential -60 mV | EC50 | 0.33 ± 0.07 µM |
| CNC(C)Cc1ccc2nsnc2c1 (stereo not drawn) | SLC6A3 | transporter current, whole-cell patch clamp | HEK293 | holding -60 mV | EC50 | 4.29 µM |
| COc1ncccc1-c1cnn2ccc(N3CCN(C(=O)OC(C)C)CC3)nc12 | SLC6A3 | liability screen |  |  | IC50 | 29 µM |
| Cc1cccc(C)c1N1C(=O)[C@H](CC2CNc3ccccc32)NC2(CCN(C)CC2)C1=O (stereo partly drawn) | SLC6A3 | binding |  |  | Ki | > 10 µM |
| CN[C@@H](C)C(=O)c1ccccc1 | SLC6A3 | peak current, two-electrode voltage clamp | Xenopus oocytes expressing hDAT | 1 min, -60 mV | EC50 | 0.23 ± 0.03 µM |
| COc1cc2c(cc1OC)CN(CCc1ccc(NC(=O)c3cccc4c(=O)c5cccc(OC)c5[nH]c34)cc1)CC2 | SLC6A3 | binding |  |  | Ki | > 10 µM |
| CN1CCN(CCOC(c2ccccc2)c2ccccc2)CC1 | Sodium-dependent dopamine transporter (SLC6A3, Homo sapiens, UniProt Q01959, W84L) | binding, [3H]CFT binding inhibition | HEK293 | 15 min, 20 °C, together with: 130 mM Na+ | Ki | 0.335 ± 0.0094 µM |
| CNC(C)Cc1ccc2c(c1)OCO2 (stereo not drawn) | SLC6A3 |  |  |  | IC50 | 6.2 ± 2.6 µM |
| CN1[C@@H]2CC[C@H]1C[C@@H](OC(=O)c1ccccc1)C2 | SLC6A3 | binding, [3H]CFT binding inhibition | HEK293 | 15 min, 20 °C, together with: 130 mM Na+ | Ki | 18.1 ± 2.98 µM |
| CNC(C)Cc1ccc2nonc2c1 (stereo not drawn) | SLC6A3 | transporter current, whole-cell patch clamp | HEK293 | holding -60 mV | EC50 | 3.97 µM |
| c1ccc(C(OCCN2CCNCC2)c2ccccc2)cc1 | SLC6A3 | binding, [3H]CFT binding inhibition | HEK293 | 15 min, 20 °C, together with: 130 mM Na+ | Ki | 0.462 ± 0.0286 µM |
| Cc1cccc(C)c1N1C(=O)[C@H](CO)NC2(CCN(C)CC2)C1=O | SLC6A3 | binding |  |  | Ki | > 10 µM |
